Measurements from different studies.
Compare with care: the assays were run in different laboratories. Values joined by “and” are separate records of one study, mostly repeats; a detail may differ. Numbers after ± are the reported error. In brackets after ≈: the same amount, converted by molar mass.

Compound | target or system | test | system | setting | how to read | measurement | result
C[C@H](NC(=O)[C@@H](O)c1cc(F)cc(F)c1)C(=O)N[C@@H]1C(=O)N(C)c2ccccc2-c2ccccc21 | dengue virus 2 | viral infection, luciferase reporter virus |  | 0.1 nM, 48 h |  | inhibition | 6.6%
O=[N+]([O-])c1ccc(C2=[N+]([O-])c3ccccc3N3CCCN=C23)cc1 | Fusobacterium nucleatum | microbial growth |  |  |  | MIC50 | ≤ 0.06 mg/L
CN(C(=O)c1ccn2ncc(-c3ccc(C(N)=O)cc3)c2c1)c1ccc(C#N)cn1 | Cryptosporidium parvum |  | UGA1 Nluc, IFN-gamma knockout C57BL/6 mice, faeces | oral, 10 mg/kg daily, 240 h post infection, treatment days 11-17 | higher means more parasites | faecal Nluc luminescence | 265000 a.u. and 9740 a.u. and 121000 a.u. and 22300 a.u. and 146000 a.u.
CC(C)C[C@H](NC(=O)[C@H](CC(C)C)NC(=O)[C@H](CCCCN)NC(=O)[C@H](Cc1ccccc1)NC(=O)[C@@H](NC(=O)[C@H](CCCNC(=N)N)NC(=O)[C@@H](N)CCCCN)C(C)C)C(=O)N[C@@H](CCCCN)C(=O)N[C@@H](CCCNC(=N)N)C(=O)N[C@@H](Cc1ccc(O)cc1)C(=O)N[C@@H](Cc1c[nH]c2ccccc12)C(=O)N[C@@H](CCCNC(=N)N)C(=O)N[C@@H](CCC(N)=O)C(=O)N[C@@H](CC(C)C)C(=O)N[C@@H](CCCCN)C(=O)N[C@@H](CCCCN)C(=O)N1CCC[C@H]1C(=O)N[C@H](C(=O)N[C@@H](CCCNC(=N)N)C(=O)NCCOCCOCC(=O)O)C(C)C | Pseudomonas aeruginosa |  | ATCC 10145-GFP | sub-MIC, 24 h | baseline: untreated | pyocyanin production decrease | > 60%
CC[C@H](C)[C@H](NC(=O)[C@H](CCCCN)NC(=O)[C@H](CCCNC(=N)N)NC(=O)CNC(=O)[C@@H](NC(=O)CN)C(C)C)C(=O)NCC(=O)N[C@@H](Cc1ccccc1)C(=O)N[C@@H](CCCCN)C(=O)N[C@@H](CCCCN)C(=O)N[C@H](C(=O)N[C@@H](CC(C)C)C(=O)N[C@@H](Cc1ccccc1)C(=O)N[C@@H](Cc1ccccc1)C(=O)N[C@@H](Cc1ccccc1)C(=O)N[C@@H](CCCCN)C(=O)N[C@@H](CCCCN)C(=O)NCC(=O)N[C@@H](Cc1ccc(O)cc1)C(=O)N[C@@H](CCC(=O)O)C(=O)N[C@@H](CCCCN)C(=O)N[C@@H](C)C(=O)N[C@@H](CC(N)=O)C(=O)NCC(=O)NCC(=O)N[C@@H](Cc1ccccc1)C(=O)N[C@H](C(=O)N[C@@H](CCCCN)C(=O)N[C@@H](CCCCN)C(=O)N[C@@H](CCCCN)C(=O)NCC(=O)O)C(C)C)C(C)C | Listeria monocytogenes | broth microdilution, agar subculture | ATCC 7644, CaMHB |  |  | MBC | > 1020 µM
CCOC(=O)C1(Cc2ccc(C(F)(F)F)cc2)Oc2cc(F)ccc2N(Cc2ccc(C(F)(F)F)cc2)C1=O (stereo not shown) | Arabidopsis thaliana | root length, petri dish germination | Col-0, 1/2 MS medium | 200 µg/mL, 7 days, 22 °C, dark |  | inhibition | 54.5%
Fc1cccc(COc2ccc(Nc3ncnc4ccc(-c5ccc(CN6CCOCC6)cc5)cc34)cc2Cl)c1 | Plasmodium falciparum | parasite growth, SYBR Green fluorescence | W2, drug-resistant |  |  | EC50 | 0.1 µM
CCOC(=O)C1(Cc2cc(OC)cc(OC)c2)Oc2cc(F)ccc2N(Cc2cc(OC)cc(OC)c2)C1=O (stereo not shown) | Arabidopsis thaliana | stem length, petri dish germination | Col-0, 1/2 MS medium | 50 µg/mL, 7 days, 22 °C, dark |  | inhibition | 26%
CCCCCCCC(=O)NCCCC[C@H](NC(=O)CCCCCCC)C(=O)N[C@@H](CCCCNC(=O)CCCCCCC)C(=O)NCC(=O)NCC(=O)NCC(=O)N[C@@H](CS)C(=O)N[C@@H](CCCNC(=N)N)C(=O)N[C@@H](CCCCN)C(=O)N1CCC[C@H]1C(=O)N[C@@H](CS)C(=O)N[C@@H](CCCNC(=N)N)C(=O)N[C@@H](CCCCN)C(=O)N1CCC[C@H]1C(=O)N[C@@H](CS)C(=O)N[C@@H](CCCNC(=N)N)C(=O)N[C@@H](CCCCN)C(=O)N1CCC[C@H]1C(=O)N[C@@H](CS)C(=O)N[C@@H](CCCNC(=N)N)C(=O)N[C@@H](CCCCN)C(=O)N1CCC[C@H]1C(N)=O | Candida albicans | broth microdilution | SP 3903, RPMI-1640 | 48 h, 30 °C |  | MIC | 16 µM (≈ 44.2 µg/mL)
CCC1(CC)CC(=O)N(C2CCOc3ccc(C(=O)NC4CC(C)(C)Oc5ccccc54)cc32)C(=N)N1 (stereo not shown) | Plasmodium falciparum | parasite growth | CAM3 REV |  |  | EC50 | 0.0005 ± 0.0001 µM
CCCN1C(=O)C(CCC)(C(=O)OCC)Oc2cc(F)ccc21 (stereo not shown) | Arabidopsis thaliana | stem length, petri dish germination | Col-0, 1/2 MS medium | 200 µg/mL, 7 days, 22 °C, dark |  | inhibition | 83.1%
NCCO.O=C(O)C(Cl)Cl | Xanthium sibiricum |  |  | 15 mg/mL, 21 days, post-emergence, greenhouse |  | herbicidal inhibition | 0%
CN(C)c1cccc(-c2ccc3ncnc(Nc4ccc(OCc5cccc(F)c5)c(Cl)c4)c3c2)c1 | Plasmodium falciparum | parasite growth, SYBR Green | D6 | blood stage |  | EC50 | 0.46 µM
CC(=O)c1c(O)c(C)c(O)c2c1OC1=CC(=O)C(=C(C)NCCCCOC3OC4OC5(C)CCC6C(C)CCC(C3C)C46OO5)C(=O)C12C (mixture of isomers) | Plasmodium berghei |  | ANKA GFP, NMRI mouse | oral, 4 x 30 mg/kg |  | mean survival time | 17 days
O=C1NC2(CC2)COc2ncc(F)cc2[C@H]2COCCN2c2ccn3ncc1c3n2 |  |  | Sprague-Dawley rat, male, adrenals | oral, 5 mg/kg/day, 4 weeks dosing, end of recovery |  | organ-to-body weight ratio | 0.012 ± 0.001%
O=S(=O)(c1ccc(-c2ccc3ncnc(Nc4ccc(OCc5cccc(Br)c5)c(Cl)c4)c3c2)cc1)N1CCOCC1 | Plasmodium falciparum | parasite growth, SYBR Green | D6 | blood stage |  | EC50 | 0.2 µM
CCOC(=O)C1(Cc2ccccc2)Oc2cc(OC)ccc2N(Cc2ccccc2)C1=O (stereo not shown) | Arabidopsis thaliana | stem length, petri dish germination | Col-0, 1/2 MS medium | 200 µg/mL, 7 days, 22 °C, dark |  | inhibition | 63.9%
O=C(c1cccc(-c2ccc3ncnc(Nc4ccc(OCc5cccc(F)c5)c(Cl)c4)c3c2)c1)N1CCOCC1 | Plasmodium falciparum | parasite growth, SYBR Green | D6 | blood stage |  | EC50 | 0.76 µM
O=c1n(CCNCCOS(=O)(=O)c2ccccc2)c(=O)n(S(=O)(=O)c2ccccc2)c(=O)n1S(=O)(=O)c1ccccc1 | Alternaria solani | broth microdilution |  |  |  | MLC | 64 ± 6 mg/L
O=S(=O)(c1ccc(-c2ccc3ncnc(Nc4ccc(OCc5ccc(C(F)(F)F)c(F)c5)c(Cl)c4)c3c2)cc1)N1CCOCC1 | Plasmodium falciparum | parasite growth, SYBR Green | D6 | blood stage |  | EC50 | 0.57 µM
CCCCCCCC(=O)NCCCC[C@H](NC(=O)CCCCCCC)C(=O)N[C@@H](CCCCNC(=O)CCCCCCC)C(=O)NCC(=O)NCC(=O)NCC(=O)N[C@@H](CS)C(=O)N[C@@H](CCCNC(=N)N)C(=O)N[C@@H](CCCCN)C(=O)N1CCC[C@H]1C(=O)N[C@@H](CS)C(=O)N[C@@H](CCCNC(=N)N)C(=O)N[C@@H](CCCCN)C(=O)N1CCC[C@H]1C(=O)N[C@@H](CS)C(=O)N[C@@H](CCCNC(=N)N)C(=O)N[C@@H](CCCCN)C(=O)N1CCC[C@H]1C(N)=O | Candida albicans | broth microdilution | 56452, RPMI-1640 | 48 h, 30 °C |  | MIC | 8 µM (≈ 18.2 µg/mL)
O=C(c1cccc(-c2ccc3ncnc(Nc4ccc(OCc5cccc(F)c5)c(Cl)c4)c3c2)c1)N1CCCC1 | Plasmodium falciparum | parasite growth, SYBR Green | D6 | blood stage |  | EC50 | 0.069 µM
CC[C@H](C)[C@H](NC(=O)[C@@H]1CCCN1C(=O)CNC(=O)[C@H](CC(N)=O)NC(=O)CNC(=O)[C@H](CC(=O)O)NC(=O)[C@@H]1CCC(=O)O[C@H](C)[C@H](NC(=O)[C@@H](NC(=O)[C@H](Cc2ccccc2)NC(=O)[C@@H](NC(=O)[C@H](CCCCN)NC(=O)CNC(=O)[C@H](CC(=O)O)NC(=O)CNC(=O)[C@@H](NC(=O)CNC(=O)[C@H](CC(=O)O)NC(=O)[C@@H]2CCC(=O)O[C@H](C)[C@H](NC(=O)[C@@H](NC(=O)[C@H](CC(C)C)NC(=O)[C@H](CCCCN)NC(=O)[C@H](Cc3ccccc3)NC(=O)[C@H](CC(=O)O)NC(=O)CNC(=O)[C@H](CCCCN)NC(=O)[C@H](CC(C)C)NC(=O)[C@H](CO)NC(=O)CN)C(C)C)C(=O)N[C@@H](CCSC)C(=O)N[C@@H](CCCCN)C(=O)N[C@@H](C(C)C)C(=O)N3CCC[C@H]3C(=O)N2)C(C)C)C(C)C)[C@@H](C)O)C(=O)N[C@@H](C)C(=O)N[C@@H](CC(C)C)C(=O)NCC(=O)N1)C(=O)N[C@@H](Cc1ccc(O)cc1)C(=O)N[C@@H]1C(=O)N[C@@H]2C(=O)N[C@@H](CCC(N)=O)C(=O)N[C@@H](C)C(=O)N[C@@H](C(C)C)C(=O)NCC(=O)N[C@@H](CCC(=O)O[C@@H]2C)C(=O)N[C@H](C(=O)NCC(=O)NCC(=O)N[C@@H](CC(=O)O)C(=O)N[C@@H](CC(C)C)C(=O)N2CCC[C@H]2C(=O)N2CCC[C@H]2C(=O)N[C@@H](CC(C)C)C(=O)N[C@@H](Cc2ccccc2)C(=O)O)CCC(=O)O[C@@H]1C | herpes simplex virus | viral replication |  |  |  | IC50 | > 100 µM
O=S(=O)(c1ccc(-c2ccc3ncnc(Nc4ccc(OCc5cccc(F)c5)cc4)c3c2)cc1)N1CCOCC1 | Plasmodium falciparum | parasite growth, SYBR Green fluorescence | W2, drug-resistant |  |  | EC50 | 2 µM
CCc1nn(C)c2nc(-c3ccc(C(=O)O)cc3)nc(NCc3ccccc3)c12 | Cryptosporidium parvum |  | HCT-8 | 9 x EC90, 6 h | baseline: DMSO control | parasite number | 96.4% and 68.2% and 98.1% and 131%
